Experimental data from different studies.
Protocols differ between the studies behind these lines.
Target: Ephrin type-A receptor 5 (EPHA5, Homo sapiens, UniProt P54756)
Sequence of UniProt P54756 (whole entry, unmodified, looked up): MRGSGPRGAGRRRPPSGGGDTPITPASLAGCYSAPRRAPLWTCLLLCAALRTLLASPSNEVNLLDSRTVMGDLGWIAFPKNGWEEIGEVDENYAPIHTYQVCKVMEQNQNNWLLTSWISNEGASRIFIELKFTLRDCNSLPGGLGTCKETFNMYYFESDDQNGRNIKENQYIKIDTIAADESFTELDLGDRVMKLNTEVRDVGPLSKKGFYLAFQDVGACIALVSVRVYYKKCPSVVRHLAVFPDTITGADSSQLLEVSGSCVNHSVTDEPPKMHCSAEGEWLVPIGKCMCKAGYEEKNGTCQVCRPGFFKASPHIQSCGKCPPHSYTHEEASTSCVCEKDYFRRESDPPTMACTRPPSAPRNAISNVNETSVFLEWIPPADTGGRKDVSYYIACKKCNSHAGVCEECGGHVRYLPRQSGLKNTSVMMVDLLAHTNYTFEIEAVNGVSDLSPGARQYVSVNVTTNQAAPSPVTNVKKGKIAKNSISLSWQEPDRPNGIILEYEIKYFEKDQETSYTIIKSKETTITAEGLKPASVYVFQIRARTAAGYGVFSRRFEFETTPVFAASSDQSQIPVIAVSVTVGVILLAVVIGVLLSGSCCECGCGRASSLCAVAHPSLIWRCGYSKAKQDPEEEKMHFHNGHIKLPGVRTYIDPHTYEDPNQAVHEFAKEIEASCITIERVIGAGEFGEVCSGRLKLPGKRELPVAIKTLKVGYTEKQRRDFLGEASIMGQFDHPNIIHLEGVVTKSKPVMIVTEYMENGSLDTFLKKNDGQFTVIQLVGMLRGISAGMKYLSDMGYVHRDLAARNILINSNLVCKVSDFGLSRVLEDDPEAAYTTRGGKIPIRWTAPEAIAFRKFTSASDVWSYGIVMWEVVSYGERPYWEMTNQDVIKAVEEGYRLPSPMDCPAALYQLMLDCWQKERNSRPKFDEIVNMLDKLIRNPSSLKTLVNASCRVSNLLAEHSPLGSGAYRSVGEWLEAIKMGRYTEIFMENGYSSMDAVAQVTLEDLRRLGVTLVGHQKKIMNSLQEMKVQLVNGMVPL

`Cc1cnc2nc1Nc1cccc(c1)COC/C=C/COCc1cc(ccc1OCCN1CCOCC1)N2` has a remaining binding of 100% (binding; 0.1 µM).
For `Cc1cccc(O[C@H]2CCC[C@@H](C(C)CNCc3ccncc3)C2)c1` (relative stereo), the inhibition was -7% (kinase activity, kinome panel screening; 10 µM).
For `O=C(Nc1ccc(Oc2ncnc3[nH]cc(-c4ccccc4)c23)c(F)c1)c1c2n(n(-c3cc(F)ccc3F)c1=O)CCCC2`, the inhibition was 7% (enzyme activity, inhibitor; 0.5 µM).
For `COc1cc(Nc2nc(C)cc(-c3cnn4nc(OC)ccc34)n2)cc(C(F)(F)F)c1`, the remaining activity was 96% (inhibitor; 1 µM; reference: control).
For `COc1c(OCCCN2CCOCC2)ccc2c1N=C(NC(=O)c1cnc(N)nc1)N1CCN=C21`, the remaining activity was 48% (kinase activity, inhibitor; 1 µM; reference: untreated control).
For `CNC(=O)C1CCN(c2cc(C)c(F)cc2NC(=O)c2ccc(-c3cc(O)ccc3C)c(C)c2)CC1`, the remaining binding was 3.2% (binding, competition with immobilised ligand; 1 µM).
`O=C(Cc1ccc(OCc2ccccc2)cc1)NC1(C(=O)O)CCN(C(=O)c2ccc(-c3cccc(Cl)c3)cc2)CC1`: “activity vs control” 109% (enzyme activity, inhibitor; 10 µM).
With `O=C=[N][Ru-4]123([n]4c5ccc(O)cc5c5c6c(c7cc(F)c[n+]1c7c54)C(=O)NC6=O)[S+]1CC[S+]2CC[S+]3CC1` (stereo not shown) the remaining activity was 124% (enzyme activity; 100 nM, human enzyme, with: 10 µM ATP; reference: untreated).
`CCN1CCN(Cc2ccc(C(=O)Nc3ccc(C)c(NCc4cnc5[nH]ccc5c4OC)c3)cc2C(F)(F)F)CC1` gave a remaining binding of 9.8% (binding, competition with immobilised ligand; 1 µM).
`Nc1ncc2c(n1)-c1c([nH]c3ccc(C4=CCOCC4)cc13)CCC2` gave a remaining binding of 87% (binding, competition with immobilised ligand; 1 µM).
`O=C(O)CCC(=O)c1cccc(NS(=O)(=O)c2c[nH]c3ncccc23)c1` gave a remaining activity of 99% (kinase activity, radiometric; 10 µM).
`NC(=O)C[C@H]1CCc2sc3ncnc(O[C@H]4CC[C@H](N5CCOCC5)CC4)c3c21` has an inhibition of 4% (enzyme activity, inhibitor; 10 µM).
The inhibition of `CN1CC[C@@H](COc2cnc(C#N)cc2-c2ccn3nc(NC(=O)C4CC4)cc3c2)C1` is reported as 10% (enzyme activity, inhibitor; 1 µM).
The inhibition of `C=CC(=O)Nc1cccc(-c2cnc3[nH]cc(C(=O)NC(C)(C)C)c3n2)c1` is reported as 0% (enzyme activity, inhibitor; 0.1 µM).
For `COc1ccc(NC(=O)Nc2ccc3c(c2)C(=O)N(C(C)CO)CC(C)C(CN(C)Cc2ccc4c(c2)OCO4)O3)cc1` (stereo not shown), the remaining activity was 91% (kinase activity, KinaseProfiler; 0.03 µM, species human; reference: control).
`CNC(=O)C[C@H](Cc1ccc(C#N)cc1)NC(=O)c1cc(-c2ccc(CN[C@H](C)c3ccc(C)cc3)o2)ccc1Cl` — result for “activity vs control”: 100% (enzyme activity, inhibitor; 1 µM).
